Results gathered from unrelated publications.
Protocols differ between the studies behind these lines.
Target: Voltage-gated inwardly rectifying potassium channel KCNH2 (KCNH2, Homo sapiens, UniProt Q12809)

Protein sequences, listed by entry. Tags and fused reporters are not part of them.
UniProt Q12809, whole entry: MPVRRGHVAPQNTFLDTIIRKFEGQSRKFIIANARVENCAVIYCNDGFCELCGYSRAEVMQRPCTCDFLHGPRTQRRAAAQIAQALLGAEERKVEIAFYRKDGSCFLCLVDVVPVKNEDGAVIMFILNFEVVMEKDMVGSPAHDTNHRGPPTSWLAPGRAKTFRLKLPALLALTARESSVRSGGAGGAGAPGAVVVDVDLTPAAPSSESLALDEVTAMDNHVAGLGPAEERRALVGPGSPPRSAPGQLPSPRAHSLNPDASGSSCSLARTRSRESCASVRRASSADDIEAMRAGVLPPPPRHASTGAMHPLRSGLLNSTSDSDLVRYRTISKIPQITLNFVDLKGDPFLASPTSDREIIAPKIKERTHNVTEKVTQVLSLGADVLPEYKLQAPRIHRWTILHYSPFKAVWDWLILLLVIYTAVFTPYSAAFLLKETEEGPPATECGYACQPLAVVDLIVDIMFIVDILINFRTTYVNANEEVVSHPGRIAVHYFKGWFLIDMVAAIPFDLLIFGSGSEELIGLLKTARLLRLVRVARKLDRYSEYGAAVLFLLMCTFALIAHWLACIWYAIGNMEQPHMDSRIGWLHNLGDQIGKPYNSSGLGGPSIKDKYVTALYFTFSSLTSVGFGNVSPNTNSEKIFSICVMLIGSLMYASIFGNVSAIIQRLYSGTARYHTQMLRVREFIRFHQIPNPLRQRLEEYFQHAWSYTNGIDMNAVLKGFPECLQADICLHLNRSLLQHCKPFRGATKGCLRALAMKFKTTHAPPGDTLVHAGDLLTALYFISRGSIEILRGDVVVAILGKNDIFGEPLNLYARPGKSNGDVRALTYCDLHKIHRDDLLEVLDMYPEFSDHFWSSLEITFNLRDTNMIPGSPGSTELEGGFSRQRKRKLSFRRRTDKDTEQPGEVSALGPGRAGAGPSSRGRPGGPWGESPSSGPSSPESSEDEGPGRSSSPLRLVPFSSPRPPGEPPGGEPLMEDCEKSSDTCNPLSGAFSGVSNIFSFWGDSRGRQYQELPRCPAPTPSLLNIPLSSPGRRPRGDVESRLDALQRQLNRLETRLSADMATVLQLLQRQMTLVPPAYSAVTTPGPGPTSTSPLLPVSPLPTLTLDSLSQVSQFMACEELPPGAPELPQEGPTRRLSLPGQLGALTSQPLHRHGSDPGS

SMILES = CC(=O)Nc1ccc2c3c(cccc13)C(=O)N(CCCCCCN1CCN(CCCCN3C(=O)CN(/N=C/c4ccc(-c5ccc(Cl)cc5)o4)C3=O)CC1)C2=O; test = probe binding; conditions = 10 µM; scale = baseline: probe without hERG; measurement = fluorescence enhancement; result = ~10 fold
SMILES = COc1ccc(CC(=O)OCc2ccc(-n3cccn3)cc2)cc1F; test = potassium current, inhibitor; measurement = IC50; result = > 50000 nM
SMILES = CN(C)S(=O)(=O)c1ccc(NCCCCCCN2CCC(Nc3nc4ccccc4n3Cc3ccc(F)cc3)CC2)c2nonc12; test = binding, radioligand displacement; system = hERG membranes; conditions = together with: 9 nM [3H]dofetilide; measurement = IC50; result = 160 nM
SMILES = Cc1cccc2c1[nH]c1c(-c3ccc(Cl)c(Cl)c3)nc(C(=O)NCCNCCO)cc12; test = ion current, inhibitor; measurement = IC50; result = 1300 nM
SMILES = CCOc1ccccc1Nc1nnc(SCC(=O)Nc2cc(F)ccc2F)s1; test = inhibitor; measurement = IC50; result = > 80000 nM
SMILES = O=C(NCCNCCO)c1cc2c([nH]c3ccccc32)c(-c2cc(Cl)c(Cl)c(Cl)c2)n1; test = ion current, inhibitor; measurement = IC50; result = 2100 nM
SMILES = CC(=NN=c1[nH]c2cc(F)c(F)cc2n1C)c1ccc(F)cn1; test = potassium current, inhibitor, manual patch clamp; measurement = IC50; result = 1130 nM
SMILES = CC(=O)Nc1ccc2c3c(cccc13)C(=O)N(CCCCN1CCN(CCCCN3C(=O)CN(/N=C/c4ccc(-c5ccc(Cl)cc5)o4)C3=O)CC1)C2=O; measurement = Ki; result = 326 nM
SMILES = O=C(NCCNCCO)c1cc2c([nH]c3ccccc32)c(-c2ccc(Cl)c(Cl)c2)n1; test = ion current, inhibitor; measurement = IC50; result = 3200 nM

A few entries again:
SMILES = CN(C)S(=O)(=O)c1ccc(NCCCCCCN2CCC(Nc3nc4ccccc4n3Cc3ccc(F)cc3)CC2)c2nonc12; test = binding, radioligand displacement; system = hERG membranes; conditions = together with: 9 nM [3H]dofetilide; measurement = IC50; result = 160 nM
